{"data": "Experimental data collected from several papers", "note": "A part holds a random share of what one study measured."}
{"data": "Set 1", "target": "Interferon regulatory factor 5, full length, phosphomimetic (IRF5, Homo sapiens, UniProt Q13568-2, residues 1-514, K96S/S451D/S453D/S456D/S462D)", "technique": "protein-binding microarray", "molecule type": "double-stranded DNA, one strand shown", "matrix": "in vitro", "concentration": "250 nM", "notes": "60-bp whole probe", "with": "salmon DNA 0.4 mg/ml", "baseline": "random background probes", "direction": "higher = stronger binding", "constant ends, left off below": "GCCTAGCAC … GTCTTGATTCGCTTGACGCTGCTG"}
{"Oligonucleotide": "GACGATTTGAGTATCGAGACGTGCTAG", "log fluorescence [z-score]": 1.82}
{"Oligonucleotide": "TTAGCTATCCTTTTCCTTTAGTGCTAG", "log fluorescence [z-score]": 0.797}
{"Oligonucleotide": "GATGGTCTCGGTTTCGGGACGTGCTAG", "log fluorescence [z-score]": 3.82}
{"Oligonucleotide": "GACGATTTCGGGTATCGTGACGTGCTA", "log fluorescence [z-score]": 4}
{"Oligonucleotide": "GACGGTATTGACTTTCGGGACGTGCTA", "log fluorescence [z-score]": 5.66}
{"Oligonucleotide": "TTATATATCGGGTATCGATTAGTGCTA", "log fluorescence [z-score]": 5.86}
{"Oligonucleotide": "GTAGATATCAGACTGGATTAGTGCTAG", "log fluorescence [z-score]": 0.039}
{"data": "Set 2", "target": "Max dimerization protein 1, bHLH-zipper, MAX partner unstated (MXD1, Homo sapiens, UniProt Q05195, residues 56-136)", "technique": "protein-binding microarray", "molecule type": "double-stranded DNA, one strand shown", "matrix": "in vitro", "concentration": "not given", "notes": "k-mer, scored over probes, only values ≥0.25", "direction": "higher = stronger binding", "Construct (chain)": "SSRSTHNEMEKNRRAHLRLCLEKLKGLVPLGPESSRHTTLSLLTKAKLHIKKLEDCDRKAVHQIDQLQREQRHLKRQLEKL"}
{"Oligonucleotide": "GTGTGCTA", "E-score": 0.258}
{"Oligonucleotide": "AGGCATGA", "E-score": 0.302}
{"Oligonucleotide": "ACGGGGGC", "E-score": 0.318}
{"Oligonucleotide": "ACGTGATG", "E-score": 0.356}
{"Oligonucleotide": "CGTGTGCA", "E-score": 0.407}
{"Oligonucleotide": "CATGGACA", "E-score": 0.279}
{"Oligonucleotide": "ATACCACG", "E-score": 0.311}
{"data": "Set 3", "target": "RING finger protein unkempt homolog, zinc fingers 1-6, GST-SBP tag (UNK, Homo sapiens, UniProt Q9C0B0, residues 30-357)", "technique": "RNA Bind-n-Seq", "molecule type": "RNA", "matrix": "in vitro", "concentration": "not given", "notes": "RNA with constant flanks, human and mouse sites, ends assumed", "baseline": "input RNA pool", "direction": "higher = stronger binding", "sequence of UniProt Q9C0B0 (30-357, looked up)": "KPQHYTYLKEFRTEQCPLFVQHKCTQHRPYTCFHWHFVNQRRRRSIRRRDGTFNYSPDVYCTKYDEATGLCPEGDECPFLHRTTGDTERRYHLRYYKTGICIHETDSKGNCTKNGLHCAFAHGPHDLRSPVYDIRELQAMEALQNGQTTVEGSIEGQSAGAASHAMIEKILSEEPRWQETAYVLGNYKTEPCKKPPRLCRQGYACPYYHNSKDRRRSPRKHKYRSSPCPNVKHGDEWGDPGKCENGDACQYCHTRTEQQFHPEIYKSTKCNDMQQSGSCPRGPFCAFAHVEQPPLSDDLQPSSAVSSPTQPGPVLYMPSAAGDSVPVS"}
{"Oligonucleotide": "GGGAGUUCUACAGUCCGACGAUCUAGGACACAUUCCCAGAAGAGCGGAAAGAUCAUUGACGUGGAACUACACACGAAGUGUAAUUAGUGGGGGAAAAAAUAUUUUUUAAACAAAGGAUAUAACCAUAUUUAGUUGUACAGUAACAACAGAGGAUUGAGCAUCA", "bound/input enrichment [ratio]": 2.47}
{"Oligonucleotide": "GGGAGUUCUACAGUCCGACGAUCGGACAGAGGCAUUCUACUGGAGAUACCAAAGUUCCCUUCUGUCUUCAGUCCUGUGUAAAACCUUUGAAAUAUGCCAUUGCUGUUAAUGAUCUUGGAACUGAAUAUGUGCAUCGAUAUGUUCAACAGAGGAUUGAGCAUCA", "bound/input enrichment [ratio]": 0.138}
{"Oligonucleotide": "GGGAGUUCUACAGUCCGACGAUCUGUGUGGCCAGAGCUUGCACAGGAGGAAAGCAGGCUGCUGAAUUUAGUCACUGAUCUCUAUUAGCGGUAGCCUAAGGCUAUGCUGAGGUUUAUAUCCCAUUUGUAUUGUUGCAGCUCAAACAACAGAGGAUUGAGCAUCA", "bound/input enrichment [ratio]": 0.418}
{"Oligonucleotide": "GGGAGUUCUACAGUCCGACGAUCCAUUCCAAAUAUUCCCCUUUUCUCUACCCCCACCUCCCUUUUGCCCCAGCAACCCAGAACACGAGUCACGCCGCAAACUUUAGGAAGUACCAUUUUCAUCUUCUCCACUGUGCGCGUGCGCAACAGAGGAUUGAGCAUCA", "bound/input enrichment [ratio]": 1.35}
{"Oligonucleotide": "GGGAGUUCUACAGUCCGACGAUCAUAGAUGCCCUCGCUUCCUCCCUGUUUCCCGAUUCCUUCUGCCCCCACCCCCAGAUCUCCUAGUAGGUCACCCAGACCCGUCUGCACCCCACUUGCGAAUCUGCAGCCACAAAUCCUCUGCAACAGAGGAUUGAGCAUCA", "bound/input enrichment [ratio]": 0.44}
{"Oligonucleotide": "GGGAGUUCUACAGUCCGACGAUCCCUCCAUCUCGGAGCUGUGGCUGCUGUGGCUGGCUCUGGCCUGCCAGUGCGUUAUAGCCCUUAGGCCUAUUGAACUUACUCUCUAAGAGAGGAUAGGACACCAGGAGAGGCUGCAGCCCUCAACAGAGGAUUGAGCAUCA", "bound/input enrichment [ratio]": 0.213}
{"data": "Mixed results"}
{"Molecule": "PhoQ, residues 284 288 289 292 302 303 TLASMF", "target": "PhoP, residues 12 14 15 18 19 LHSVW (Escherichia coli, UniProt P23836)", "test": "Sort-seq, measured: YFP reporter", "test system": "E. coli", "conditions": "PhoQ-PhoP variant library, with: 10 µM Mg2+", "scale": "baseline: high Mg2+ state, higher = stronger signaling", "measurement": "fold induction", "value": 3.22}
{"note": "Excerpt of the above (set 2):"}
{"Oligonucleotide": "CATGGACA", "E-score": 0.279}
{"Oligonucleotide": "CGTGTGCA", "E-score": 0.407}
